{"data": "Assay results pooled from the literature", "note": "Every numbered part comes from another study and shows a few of its results, in no order."}
{"data": "Block 1", "cell line": "HEK-293T-ACE2", "tested at": "concentration not given", "reference": "vehicle"}
{"Structure (SMILES)": "Cl.NCC(=O)CCC(=O)O", "cell number": "100%"}
{"Structure (SMILES)": "CCN1CC(CCN2CCOCC2)C(c2ccccc2)(c2ccccc2)C1=O.Cl.O (stereo not drawn)", "cell number": "97.5%"}
{"Structure (SMILES)": "CO[C@H]1C[C@@H]2CC[C@@H](C)[C@@](O)(O2)C(=O)C(=O)N2CCCC[C@H]2C(=O)O[C@H]([C@H](C)C[C@@H]2CC[C@@H](OC(=O)C(C)(CO)CO)[C@H](OC)C2)CC(=O)[C@H](C)/C=C(\\C)[C@@H](O)[C@@H](OC)C(=O)[C@H](C)C[C@H](C)/C=C/C=C/C=C/1C", "cell number": "88.4%"}
{"Structure (SMILES)": "Nc1nc2[nH]cc(CCc3ccc(C(=O)N[C@@H](CCC(=O)O)C(=O)O)cc3)c2c(=O)[nH]1", "cell number": "94.8%"}
{"data": "Block 2", "target": "Sal-like protein 4, full length isoform A (SALL4, Homo sapiens, UniProt Q9UJQ4, residues 1-1053)", "technique": "universal PBM", "form": "double-stranded DNA, one strand shown", "sample": "in vitro", "tested at": "600 nM", "setting": "8-mer, flanks averaged, mean of replicates", "reading": "higher = stronger binding", "chain of UniProt Q9UJQ4 (whole entry, looked up)": "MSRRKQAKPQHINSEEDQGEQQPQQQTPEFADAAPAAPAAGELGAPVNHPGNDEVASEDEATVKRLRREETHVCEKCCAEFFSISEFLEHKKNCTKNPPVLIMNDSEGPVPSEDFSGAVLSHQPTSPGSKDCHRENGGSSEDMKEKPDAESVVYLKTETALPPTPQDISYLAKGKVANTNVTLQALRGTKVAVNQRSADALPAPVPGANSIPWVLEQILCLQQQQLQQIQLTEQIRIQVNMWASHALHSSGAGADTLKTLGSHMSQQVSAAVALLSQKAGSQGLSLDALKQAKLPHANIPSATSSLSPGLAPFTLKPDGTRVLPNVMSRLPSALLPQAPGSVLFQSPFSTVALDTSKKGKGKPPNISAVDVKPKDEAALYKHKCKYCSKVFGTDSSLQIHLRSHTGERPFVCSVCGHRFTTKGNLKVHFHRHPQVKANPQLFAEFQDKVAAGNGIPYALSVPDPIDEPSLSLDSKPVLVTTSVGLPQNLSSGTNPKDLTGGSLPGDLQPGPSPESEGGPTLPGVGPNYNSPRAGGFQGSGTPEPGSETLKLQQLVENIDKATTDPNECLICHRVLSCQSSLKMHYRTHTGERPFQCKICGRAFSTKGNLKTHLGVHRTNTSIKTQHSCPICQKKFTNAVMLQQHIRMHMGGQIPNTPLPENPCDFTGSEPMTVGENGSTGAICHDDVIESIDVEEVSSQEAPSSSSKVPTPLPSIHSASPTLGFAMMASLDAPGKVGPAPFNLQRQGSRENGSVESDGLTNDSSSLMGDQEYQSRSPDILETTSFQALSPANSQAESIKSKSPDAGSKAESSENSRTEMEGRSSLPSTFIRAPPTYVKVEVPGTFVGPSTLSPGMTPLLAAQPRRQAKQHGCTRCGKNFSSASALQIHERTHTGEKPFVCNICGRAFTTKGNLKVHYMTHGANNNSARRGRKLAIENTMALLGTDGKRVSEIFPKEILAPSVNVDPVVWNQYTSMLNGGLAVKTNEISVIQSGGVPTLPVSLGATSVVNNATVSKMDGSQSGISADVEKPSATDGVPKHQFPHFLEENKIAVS"}
{"Sequence": "GAACCGGC", "E-score": -0.407}
{"Sequence": "AATCGTAC", "E-score": 0.0842}
{"Sequence": "AGCTATTG", "E-score": 0.0513}
{"Sequence": "CGTGTACC", "E-score": -0.221}
{"Sequence": "AGTCTTAT", "E-score": 0.255}
{"Sequence": "CCAGAGTA", "E-score": -0.119}
{"Sequence": "CGGTTAGC", "E-score": -0.179}
{"Sequence": "ACAATTAG", "E-score": 0.154}
{"data": "Block 3", "target": "Interferon regulatory factor 7, full length, phosphomimetic (IRF7, Homo sapiens, UniProt Q92985, residues 1-503, S471D/S472D/S475D/S476D/S477D/S483D/S484D/S487D)", "technique": "protein-binding microarray", "form": "double-stranded DNA, one strand shown", "sample": "in vitro", "tested at": "2200 nM top", "setting": "60-bp whole probe", "with": "salmon DNA 0.4 mg/ml", "reference": "random background probes", "reading": "higher = stronger binding", "all sequences stand within": "GCCTAGCAC … GTCTTGATTCGCTTGACGCTGCTG", "chain of UniProt Q92985 (whole entry, unmodified, looked up)": "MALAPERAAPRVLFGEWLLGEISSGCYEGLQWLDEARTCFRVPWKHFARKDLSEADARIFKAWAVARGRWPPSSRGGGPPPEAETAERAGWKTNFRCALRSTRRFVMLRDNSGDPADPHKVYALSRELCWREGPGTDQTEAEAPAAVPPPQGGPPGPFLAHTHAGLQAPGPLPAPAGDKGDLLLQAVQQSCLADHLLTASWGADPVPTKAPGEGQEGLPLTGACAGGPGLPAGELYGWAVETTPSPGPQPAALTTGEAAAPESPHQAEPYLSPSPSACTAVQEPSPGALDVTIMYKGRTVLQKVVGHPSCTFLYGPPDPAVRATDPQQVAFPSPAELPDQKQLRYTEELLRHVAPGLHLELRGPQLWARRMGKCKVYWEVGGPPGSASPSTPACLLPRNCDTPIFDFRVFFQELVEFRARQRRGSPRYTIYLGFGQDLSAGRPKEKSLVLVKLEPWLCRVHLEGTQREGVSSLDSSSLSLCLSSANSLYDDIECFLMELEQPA"}
{"Sequence": "GACGATTTCGGAACTGGAGACGTGCTA", "fitted relative affinity": "1.7 z-score"}
{"Sequence": "TTAGATTTCAGTTTCGATTCGTGCTAG", "fitted relative affinity": "13.4 z-score"}
{"Sequence": "TGAGGACTGCTTATCCTTTAGTGCTAG", "fitted relative affinity": "0.276 z-score"}
{"Sequence": "GACGGTTTCCTACTGCTGTCGTGCTAG", "fitted relative affinity": "2.29 z-score"}
{"Sequence": "TCACCTCCCCCTCTGCCACTGTGCTAG", "fitted relative affinity": "0.291 z-score"}
{"Sequence": "GACGATTTCACTCTCGAGACGTGCTAG", "fitted relative affinity": "1.51 z-score"}
{"Sequence": "GACGGTTTCGTGTTTCGGGACGTGCTA", "fitted relative affinity": "8.08 z-score"}
{"Sequence": "GAATCTCTCATGTTACATTTGTGCTAG", "fitted relative affinity": "1.11 z-score"}
{"data": "Block 4", "target": "Replicase polyprotein 1ab, nsp13 helicase (rep, Severe acute respiratory syndrome coronavirus 2, UniProt P0DTD1)", "mode": "inhibitor", "tested at": "20 µM"}
{"Structure (SMILES)": "Cc1cc(NCCO)nc(-c2ccc(Br)cc2)n1", "inhibition [%]": 7.59}
{"Structure (SMILES)": "COc1cc2nccc(Oc3ccc(NC(=O)Nc4ccc(F)cc4F)c(F)c3)c2cc1OC", "inhibition [%]": 1.44}
{"Structure (SMILES)": "NCCNc1ccc(NCCN)c2c1C(=O)c1ccncc1C2=O", "inhibition [%]": 92.3}
{"Structure (SMILES)": "COc1cc(OC)c(C(=O)CCCN2CCCC2)c(OC)c1", "inhibition [%]": -3.49}
{"Structure (SMILES)": "FCc1ccc(OCCOc2ccc(Cl)cc2Cl)c(Cl)n1", "inhibition [%]": -3.4}
{"Structure (SMILES)": "O=C(O)c1c(Sc2ccccc2)c2cc(Cl)ccc2n1Cc1ccc(Cl)cc1", "inhibition [%]": 55.3}
{"Structure (SMILES)": "CCCN[C@H]1CCc2nc(N)sc2C1", "inhibition [%]": 3.37}
{"Structure (SMILES)": "O=c1ncccn1[C@@H]1O[C@H](CO)[C@@H](O)[C@H]1O", "inhibition [%]": 4.36}
{"Structure (SMILES)": "CC(=O)OCC(=O)[C@H]1CC[C@H]2[C@@H]3CCC4=CC(=O)CC[C@]4(C)[C@H]3CC[C@]12C", "inhibition [%]": 4.45}
{"Structure (SMILES)": "N#C/C(=C\\c1cn(-c2ccccc2)c2ccccc12)C(=O)O", "inhibition [%]": -0.11}
{"Structure (SMILES)": "O=C(O)c1cc2cc(Cc3cccnc3)ccc2o1", "inhibition [%]": 5.31}
{"Structure (SMILES)": "CCC(=O)c1ccc(O)cc1", "inhibition [%]": -0.35}
{"Structure (SMILES)": "C[C@@H]1CN(c2c(F)c(F)c3c(=O)c(C(=O)O)cn(C4CC4)c3c2F)C[C@H](C)N1", "inhibition [%]": -1.43}
{"Structure (SMILES)": "N[C@@H](CC(=O)Nc1ccc(Oc2cc(F)c(F)cc2Br)cc1)C(=O)O", "inhibition [%]": 8.1}
{"Structure (SMILES)": "Cn1c(=O)c(F)c(Nc2ccc(I)cc2F)c2c(=O)n(C[C@@H](O)CO)cnc21", "inhibition [%]": 10.4}
{"Structure (SMILES)": "CCN(Cc1ccccc1)C(=O)Cn1c(=O)n(C)c2cnc(-c3ccccc3)nc21", "inhibition [%]": 2.81}
{"Structure (SMILES)": "BrC1C(Br)C(Br)C(Br)C(Br)C1Br (stereo not drawn)", "inhibition [%]": 1.29}
{"Structure (SMILES)": "CC(C)OC(=O)CNC(=O)[C@H](CS)NC(=O)CC[C@H](N)C(=O)O", "inhibition [%]": 3.55}
{"Structure (SMILES)": "C[C@H](CCC(=O)O)[C@H]1CC[C@H]2[C@@H]3CC[C@@H]4C[C@H](O)CC[C@]4(C)[C@H]3CC[C@]12C", "inhibition [%]": 0.89}
{"Structure (SMILES)": "CC(CCc1ccc(O)cc1)NCC(O)c1ccc(O)cc1 (stereo not drawn)", "inhibition [%]": 6.5}
{"Structure (SMILES)": "CN(C)CCOc1ccc(/C(=C(/CCCl)c2ccccc2)c2ccccc2)cc1", "inhibition [%]": 10.8}
{"Structure (SMILES)": "CC(=O)O/N=C1\\C(=O)N(Cc2cc(Cl)ccc2Cl)c2ccc(Cl)cc21", "inhibition [%]": 2.16}
{"Structure (SMILES)": "Cc1ncc(C)n2nc([C@@H]3C[C@H]3c3nc4c5cccnc5ccn4c3C)nc12", "inhibition [%]": 1.27}
{"Structure (SMILES)": "NC(=O)NCCN1CCN(c2cccc(C(F)(F)F)c2)CC1", "inhibition [%]": -1.88}
{"Structure (SMILES)": "CCCC(=O)O[C@]1(C(=O)COC(C)=O)CC[C@H]2[C@@H]3C[C@H](F)C4=CC(=O)C=C[C@]4(C)[C@@]3(F)[C@@H](O)C[C@@]21C", "inhibition [%]": 9.32}
{"data": "Block 5", "target": "Histone acetyltransferase KAT6A, winged helix 1, GST fusion (KAT6A, Homo sapiens, UniProt Q92794, residues 1-85)", "technique": "protein binding microarray", "form": "double-stranded DNA, one strand shown", "sample": "in vitro", "tested at": "not given", "setting": "8-mer, flanks averaged, mean of 2 arrays, mostly near background", "reference": "not given", "reading": "higher = stronger binding", "Target sequence (chain)": "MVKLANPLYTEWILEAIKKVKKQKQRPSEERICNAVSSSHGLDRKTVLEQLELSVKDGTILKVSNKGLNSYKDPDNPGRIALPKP"}
{"Sequence": "CGGGGACC", "E-score": 0.29}
{"Sequence": "CGCGCTCA", "E-score": 0.31}
{"Sequence": "TCCGCAGA", "E-score": 0.138}
{"Sequence": "AATTATAC", "E-score": -0.0325}
{"Sequence": "CAGTAACC", "E-score": 0.101}
{"Sequence": "CTATCAAA", "E-score": -0.185}
{"Sequence": "AGTGGGAC", "E-score": -0.158}
{"Sequence": "CCTGATCG", "E-score": 0.0361}
{"data": "Mixed results"}
{"Structure (SMILES)": "O=C1C=CC(=O)C2=C1C1c3ccccc3C2c2ccccc21", "target": "Replicase polyprotein 1ab, main protease (rep, Severe acute respiratory syndrome coronavirus 2, UniProt P0DTD1)", "test": "enzyme activity, inhibitor", "conditions": "20 µM, primary screen", "quantity": "inhibition", "value": "99.2%"}
{"note": "Some of these lines once more (block 4):"}
{"Structure (SMILES)": "BrC1C(Br)C(Br)C(Br)C(Br)C1Br (stereo not drawn)", "inhibition [%]": 1.29}
{"Structure (SMILES)": "CC(C)OC(=O)CNC(=O)[C@H](CS)NC(=O)CC[C@H](N)C(=O)O", "inhibition [%]": 3.55}
{"Structure (SMILES)": "C[C@H](CCC(=O)O)[C@H]1CC[C@H]2[C@@H]3CC[C@@H]4C[C@H](O)CC[C@]4(C)[C@H]3CC[C@]12C", "inhibition [%]": 0.89}
{"Structure (SMILES)": "CC(CCc1ccc(O)cc1)NCC(O)c1ccc(O)cc1 (stereo not drawn)", "inhibition [%]": 6.5}
{"Structure (SMILES)": "CN(C)CCOc1ccc(/C(=C(/CCCl)c2ccccc2)c2ccccc2)cc1", "inhibition [%]": 10.8}
{"Structure (SMILES)": "CC(=O)O/N=C1\\C(=O)N(Cc2cc(Cl)ccc2Cl)c2ccc(Cl)cc21", "inhibition [%]": 2.16}
